Measurements from different studies.
Every numbered part comes from another study and shows a few of its results, in no order.
Chain of UniProt P42336 (whole entry, unmodified, looked up): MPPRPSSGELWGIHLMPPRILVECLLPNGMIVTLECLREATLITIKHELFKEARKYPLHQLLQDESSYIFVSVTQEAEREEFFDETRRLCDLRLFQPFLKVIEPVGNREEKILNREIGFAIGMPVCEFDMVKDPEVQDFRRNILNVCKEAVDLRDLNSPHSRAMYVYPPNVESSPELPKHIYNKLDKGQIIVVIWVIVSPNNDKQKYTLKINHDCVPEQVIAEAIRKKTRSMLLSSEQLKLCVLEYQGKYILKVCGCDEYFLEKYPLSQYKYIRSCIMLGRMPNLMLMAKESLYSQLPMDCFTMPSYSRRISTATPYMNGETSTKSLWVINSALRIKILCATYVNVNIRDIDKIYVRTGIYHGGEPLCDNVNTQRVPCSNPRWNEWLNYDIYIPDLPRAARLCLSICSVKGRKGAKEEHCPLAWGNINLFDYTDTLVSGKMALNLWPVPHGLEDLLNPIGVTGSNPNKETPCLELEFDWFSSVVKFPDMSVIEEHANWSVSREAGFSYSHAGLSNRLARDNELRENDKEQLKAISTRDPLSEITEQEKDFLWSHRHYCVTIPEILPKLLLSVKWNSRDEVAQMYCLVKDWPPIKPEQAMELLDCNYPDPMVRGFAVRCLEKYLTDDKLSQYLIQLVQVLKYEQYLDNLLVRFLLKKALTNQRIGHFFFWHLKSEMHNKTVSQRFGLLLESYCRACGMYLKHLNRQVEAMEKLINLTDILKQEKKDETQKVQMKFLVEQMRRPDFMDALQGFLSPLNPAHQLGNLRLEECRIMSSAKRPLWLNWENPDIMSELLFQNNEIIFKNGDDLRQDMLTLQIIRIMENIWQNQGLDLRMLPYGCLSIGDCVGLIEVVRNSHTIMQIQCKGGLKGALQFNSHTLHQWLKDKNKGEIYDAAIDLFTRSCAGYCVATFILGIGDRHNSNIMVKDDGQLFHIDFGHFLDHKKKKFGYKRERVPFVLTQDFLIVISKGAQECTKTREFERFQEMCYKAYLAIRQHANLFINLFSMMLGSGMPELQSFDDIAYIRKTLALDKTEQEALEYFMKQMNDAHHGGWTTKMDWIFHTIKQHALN
Chain of UniProt O14578 (whole entry, looked up): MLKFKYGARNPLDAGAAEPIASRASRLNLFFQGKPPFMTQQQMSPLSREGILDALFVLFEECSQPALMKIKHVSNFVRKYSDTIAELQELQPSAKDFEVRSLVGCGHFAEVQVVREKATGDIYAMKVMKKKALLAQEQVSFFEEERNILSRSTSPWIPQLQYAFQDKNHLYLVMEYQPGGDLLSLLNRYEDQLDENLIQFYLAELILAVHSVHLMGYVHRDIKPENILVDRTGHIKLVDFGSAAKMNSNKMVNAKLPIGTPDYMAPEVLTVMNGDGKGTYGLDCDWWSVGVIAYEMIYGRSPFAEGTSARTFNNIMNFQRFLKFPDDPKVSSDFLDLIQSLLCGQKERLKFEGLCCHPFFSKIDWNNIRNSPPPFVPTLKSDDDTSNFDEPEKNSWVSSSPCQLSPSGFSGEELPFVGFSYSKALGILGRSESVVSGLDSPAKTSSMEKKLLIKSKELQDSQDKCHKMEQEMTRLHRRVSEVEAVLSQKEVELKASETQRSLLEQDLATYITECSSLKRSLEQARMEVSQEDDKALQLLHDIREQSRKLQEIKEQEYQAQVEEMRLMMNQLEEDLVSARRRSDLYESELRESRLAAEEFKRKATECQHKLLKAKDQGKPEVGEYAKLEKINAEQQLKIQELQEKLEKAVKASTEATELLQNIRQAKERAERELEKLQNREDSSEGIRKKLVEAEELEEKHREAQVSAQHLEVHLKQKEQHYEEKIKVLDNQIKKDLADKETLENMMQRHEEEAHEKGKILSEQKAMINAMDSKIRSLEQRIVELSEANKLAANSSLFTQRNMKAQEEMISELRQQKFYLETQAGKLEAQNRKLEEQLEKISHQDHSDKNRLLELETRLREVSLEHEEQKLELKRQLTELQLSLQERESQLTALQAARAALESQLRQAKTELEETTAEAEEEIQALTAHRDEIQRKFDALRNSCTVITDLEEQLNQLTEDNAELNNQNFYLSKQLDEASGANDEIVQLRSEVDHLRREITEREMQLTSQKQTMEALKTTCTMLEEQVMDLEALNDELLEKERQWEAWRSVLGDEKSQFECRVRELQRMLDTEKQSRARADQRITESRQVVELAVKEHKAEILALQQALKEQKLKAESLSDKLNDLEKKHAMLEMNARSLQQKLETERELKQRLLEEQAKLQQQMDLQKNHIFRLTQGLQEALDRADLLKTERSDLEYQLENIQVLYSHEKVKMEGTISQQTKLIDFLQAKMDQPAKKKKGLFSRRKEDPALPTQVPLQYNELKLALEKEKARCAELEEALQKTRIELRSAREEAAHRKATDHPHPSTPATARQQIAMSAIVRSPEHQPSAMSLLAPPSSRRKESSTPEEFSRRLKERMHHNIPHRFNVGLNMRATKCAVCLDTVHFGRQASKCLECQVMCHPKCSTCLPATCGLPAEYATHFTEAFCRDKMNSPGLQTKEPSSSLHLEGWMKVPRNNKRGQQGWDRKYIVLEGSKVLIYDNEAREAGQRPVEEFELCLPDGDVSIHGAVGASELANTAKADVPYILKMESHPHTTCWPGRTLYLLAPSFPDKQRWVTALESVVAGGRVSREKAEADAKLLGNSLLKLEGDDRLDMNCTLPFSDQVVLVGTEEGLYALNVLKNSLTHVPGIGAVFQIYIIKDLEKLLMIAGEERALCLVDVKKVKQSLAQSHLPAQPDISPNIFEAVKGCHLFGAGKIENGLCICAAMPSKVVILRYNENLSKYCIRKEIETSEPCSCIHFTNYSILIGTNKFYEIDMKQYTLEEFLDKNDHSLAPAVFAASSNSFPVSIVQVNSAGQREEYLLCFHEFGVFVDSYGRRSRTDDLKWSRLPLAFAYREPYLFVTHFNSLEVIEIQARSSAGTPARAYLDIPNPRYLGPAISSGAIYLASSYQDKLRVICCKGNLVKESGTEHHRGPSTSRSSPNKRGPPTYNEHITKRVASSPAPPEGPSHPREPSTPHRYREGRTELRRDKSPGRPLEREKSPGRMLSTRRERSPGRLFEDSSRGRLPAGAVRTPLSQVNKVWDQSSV
Chain of UniProt Q9NY57 (whole entry, looked up): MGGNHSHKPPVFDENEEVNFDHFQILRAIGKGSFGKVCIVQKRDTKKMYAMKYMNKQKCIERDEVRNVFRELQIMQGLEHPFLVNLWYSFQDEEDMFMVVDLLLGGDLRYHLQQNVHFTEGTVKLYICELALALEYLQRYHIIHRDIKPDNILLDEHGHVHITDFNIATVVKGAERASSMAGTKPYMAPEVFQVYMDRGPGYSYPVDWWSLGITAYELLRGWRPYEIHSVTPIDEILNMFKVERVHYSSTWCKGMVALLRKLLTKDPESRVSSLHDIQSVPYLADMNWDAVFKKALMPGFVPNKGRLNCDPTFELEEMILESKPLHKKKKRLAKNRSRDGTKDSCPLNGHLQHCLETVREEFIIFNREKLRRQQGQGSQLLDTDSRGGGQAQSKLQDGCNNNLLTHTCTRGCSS
Chain of UniProt Q15835 (whole entry, looked up): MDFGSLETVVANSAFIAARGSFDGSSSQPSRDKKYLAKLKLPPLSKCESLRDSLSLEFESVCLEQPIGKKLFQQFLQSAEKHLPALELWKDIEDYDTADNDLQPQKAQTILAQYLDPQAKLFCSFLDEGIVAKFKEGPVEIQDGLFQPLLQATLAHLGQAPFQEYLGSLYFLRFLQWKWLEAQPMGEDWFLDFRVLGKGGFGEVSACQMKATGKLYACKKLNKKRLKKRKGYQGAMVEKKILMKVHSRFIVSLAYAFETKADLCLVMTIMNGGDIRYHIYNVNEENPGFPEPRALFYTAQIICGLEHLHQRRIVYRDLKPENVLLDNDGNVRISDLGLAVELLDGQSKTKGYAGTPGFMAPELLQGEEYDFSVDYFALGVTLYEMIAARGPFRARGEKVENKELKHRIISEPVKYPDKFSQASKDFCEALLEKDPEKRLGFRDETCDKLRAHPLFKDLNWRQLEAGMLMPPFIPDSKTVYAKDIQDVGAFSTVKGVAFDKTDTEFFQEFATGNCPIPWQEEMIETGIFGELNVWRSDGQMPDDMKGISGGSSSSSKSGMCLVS
Chain of UniProt P42685 (whole entry, looked up): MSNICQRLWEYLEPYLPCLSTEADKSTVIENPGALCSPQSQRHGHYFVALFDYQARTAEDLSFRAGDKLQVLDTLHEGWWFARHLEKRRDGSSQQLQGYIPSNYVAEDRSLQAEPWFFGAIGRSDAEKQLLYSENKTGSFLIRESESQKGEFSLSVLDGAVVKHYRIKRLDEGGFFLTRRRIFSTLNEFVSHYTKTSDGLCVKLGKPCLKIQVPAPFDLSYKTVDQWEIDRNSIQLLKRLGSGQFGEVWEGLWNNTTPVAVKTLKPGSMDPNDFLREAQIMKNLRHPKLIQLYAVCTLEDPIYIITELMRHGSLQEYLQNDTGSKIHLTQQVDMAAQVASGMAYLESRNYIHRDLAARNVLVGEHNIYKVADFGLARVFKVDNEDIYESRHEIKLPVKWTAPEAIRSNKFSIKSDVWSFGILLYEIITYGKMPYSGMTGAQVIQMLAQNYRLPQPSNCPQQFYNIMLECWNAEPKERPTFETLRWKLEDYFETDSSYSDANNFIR

Sample 1
Target: Cyclin-dependent kinase 3, with cyclin E (CDK3, Homo sapiens, UniProt Q00526)
Chain of UniProt Q00526 (whole entry, looked up): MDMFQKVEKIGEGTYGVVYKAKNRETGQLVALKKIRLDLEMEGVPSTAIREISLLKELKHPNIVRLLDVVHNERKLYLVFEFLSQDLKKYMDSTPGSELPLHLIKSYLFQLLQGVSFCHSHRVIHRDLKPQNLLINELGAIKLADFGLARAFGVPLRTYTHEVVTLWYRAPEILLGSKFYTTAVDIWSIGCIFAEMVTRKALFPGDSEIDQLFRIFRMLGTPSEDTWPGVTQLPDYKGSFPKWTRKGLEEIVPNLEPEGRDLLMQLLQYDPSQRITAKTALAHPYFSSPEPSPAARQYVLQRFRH
Effect on: enzyme activity
Action: inhibitor
Concentration: 0.5 µM
Reference: control
Compound | remaining activity [%]
CC(C)(C)c1nc2c3cc[nH]c(=O)c3c3cc(F)ccc3c2[nH]1 | 92.1
CCN(CC)CCCCN1c2ccccc2Oc2ccc(Cl)cc21 | 90.3
O=c1c(-c2ccc(F)cc2)c(-c2ccncc2)[nH]n1-c1ccc(Cl)cc1 | 86.9
O=C(c1ccccc1)c1ccc(N2CCOCC2)cc1O | 105
c1cc(-c2cnn3cc(-c4ccc(OCCN5CCCCC5)cc4)cnc23)ccn1 | 89.9
Nc1nc(Nc2ccc(S(N)(=O)=O)cc2)nn1C(=S)Nc1c(F)cccc1F | -0.912
COc1cc2c(Nc3ccc(Br)cc3F)ncnc2cc1OCC1CCN(C)CC1 | 92.9
CNc1cc2c(Nc3cccc(Br)c3)ncnc2cn1 | 80.2
NC(=O)c1ccc(-c2nc(-c3ccc4c(c3)OCCO4)c(-c3ccccn3)[nH]2)cc1 | 99.4
C[C@@H](N)[C@H]1CC[C@H](C(=O)Nc2ccncc2)CC1 | 97.1
Clc1ccc(Nc2nnc(Cc3ccncc3)c3ccccc23)cc1 | 92.7
O=C(O)/C=C/c1cc(Br)c(Br)c(Br)c1Br | 98.3
O=C1c2ccccc2-c2nc3nnnn3nc21 | 73.4
FC(F)(F)c1ccc(/C=C/c2nc(COc3ccc(CCCCn4ccnn4)cc3)co2)cc1 | 91
CC(C)n1cnc2c(Nc3cccc(Cl)c3)nc(NCCO)nc21 | 76.9
O=C1NC(=O)/C(=C/c2ccc3c(c2)OC(F)(F)O3)S1 | 99.4
NC(=O)c1cccc(-c2cc(Nc3ccc(OC(F)(F)F)cc3)ncn2)c1 | 98.8
COc1cc2c(N3CCN(C(=O)Nc4ccc(OC(C)C)cc4)CC3)ncnc2cc1OCCCN1CCCCC1 | 90.6
CC(C)N(CCC(=O)c1ccc2ccccc2c1)Cc1ccccc1 | 91.4
CCCCc1c(-c2ccc(O)cc2)[nH]c2nccnc12 | 76.8
N#C/C(=C(/N)SC1C=CC=CC1)c1cccc(C(O)c2ccncc2)c1 (centres unmarked) | 95.6

Sample 2
SMILES: NCc1ccc(Nc2ncc(F)c(Nc3ccccc3)n2)cc1
target | effect on | method | medium | IC50
Trypanosoma brucei kinase GI 71749328 | binding | kinobead competition | Trypanosoma brucei lysate | > 10 µM
Trypanosoma brucei kinase Tb427tmp.01.0930 | binding | kinobead competition | Trypanosoma brucei lysate | > 10 µM
Trypanosoma brucei NEK Tb427tmp.02.4530 | binding | kinobead competition | Trypanosoma brucei lysate | > 10 µM
AP-2 complex subunit alpha-1 (Homo sapiens, UniProt O95782) | – | – | – | > 10 µM
Cyclin-T1 (CCNT1, Homo sapiens, UniProt O60563) | – | – | – | > 10 µM

Sample 3
Species: mouse
Medium: microsomes or S9
Concentration: 2 µM
Time: 0.5 h
SMILES | remaining compound
CN(C)S(=O)(=O)c1cc(C(=O)Nc2ccc(Br)cc2)c(Cl)cc1Cl | 4.93%
Cn1c(Cn2cc(-c3nnco3)ccc2=O)nc2cc(Cl)ccc21 | 74%
CN(Cc1ccccc1)Cc1cc(=O)n2nc(-c3ccc(C(C)(C)C)cc3)nc2[nH]1 | 60.4%
COc1cc(=O)n2c(c1C(=O)Nc1cccc(F)c1C)CCCC2 | 0.0819%
CC(C)CC(=O)Nc1ccc(-n2cnc(C(=O)NCc3ccccc3Cl)c2)nc1 | 95.7%
CS(=O)(=O)NCC1COCCN1C(=O)Nc1ccc2cnccc2c1 (centres unmarked) | 59.2%
CS(=O)(=O)N[C@H]1CC[C@H](Nc2ncnc3[nH]cc(-c4cc(Cl)c(O)c(Cl)c4)c23)CC1 | 87.1%
CCc1cc2c3c([nH]c2cc1S(=O)(=O)N1CCN(C)CC1)CC(C)(C)CC3=O | 75.5%
CN(C)CCOc1cc(N2C(=O)c3ccccc3S2(=O)=O)ccc1Cl | 24.9%
COc1ccc2c(cc(C(=O)Nc3ccccc3OCC3CCCCO3)n2C)c1OC (centres unmarked) | 8.61%
CCS(=O)(=O)Nc1cccc(-c2cc(=O)n(-c3ccc(F)c(Cl)c3)nc2C)c1 | 90%
Cc1n[nH]c(-n2ccc3nc4ccn(CCc5ccccc5)c(=O)c4cc3c2=O)n1 | 62%
N#Cc1ccccc1COc1ccc2c(c1)OCO2 | 23.5%
Cc1cccc(NC(=O)C2CCCN(S(=O)(=O)c3c[nH]c(C(=O)N4CCCC4)c3)C2)c1C (centres unmarked) | 3.22%
O=C1NN=C(c2ccc(OCCN3CCOCC3)cc2)CC1c1ccc(Cl)cc1 (centres unmarked) | 24.6%

Sample 4
SMILES: O=S(=O)(NC1CCC(c2cc(F)ccc2F)(S(=O)(=O)c2ccc(Cl)cc2)CC1)C(F)(F)F (centres unmarked)
Method: competition with immobilised ligand
Concentration: 1 µM
target | effect on | remaining binding [%]
Insulin receptor (INSR, Homo sapiens, UniProt P06213) | cell-free assay | 95
Citron Rho-interacting kinase (CIT, Homo sapiens, UniProt O14578) | binding | 0
Serine/threonine-protein kinase BRSK2 (BRSK2, Homo sapiens, UniProt Q8IWQ3) | cell-free assay | 100
Receptor-type tyrosine-protein kinase FLT3 (FLT3, Homo sapiens, UniProt P36888, F691L/ITD) | cell-free assay | 100
Protein kinase C epsilon type (PRKCE, Homo sapiens, UniProt Q02156) | cell-free assay | 52
Phosphatidylinositol 4,5-bisphosphate 3-kinase catalytic subunit alpha isoform (PIK3CA, Homo sapiens, UniProt P42336, M1043I) | cell-free assay | 100
Serine/threonine-protein kinase WNK1 (WNK1, Homo sapiens, UniProt Q9H4A3) | cell-free assay | 100
STE20-like serine/threonine-protein kinase (SLK, Homo sapiens, UniProt Q9H2G2) | cell-free assay | 100
Tyrosine-protein kinase FRK (FRK, Homo sapiens, UniProt P42685) | cell-free assay | 100
Phosphatidylinositol 4,5-bisphosphate 3-kinase catalytic subunit alpha isoform (PIK3CA, Homo sapiens, UniProt P42336, I800L) | cell-free assay | 98
Mast/stem cell growth factor receptor Kit, autoinhibited (KIT, Homo sapiens, UniProt P10721) | cell-free assay | 100
Rhodopsin kinase GRK1 (GRK1, Homo sapiens, UniProt Q15835) | cell-free assay | 84
Serine/threonine-protein kinase 32B (STK32B, Homo sapiens, UniProt Q9NY57) | cell-free assay | 100
Mitogen-activated protein kinase 1 (MAPK1, Homo sapiens, UniProt P28482) | cell-free assay | 100
Fibroblast growth factor receptor 3 (FGFR3, Homo sapiens, UniProt P22607) | cell-free assay | 90
Activin receptor type-1-like (ACVRL1, Homo sapiens, UniProt P37023) | binding | 100
Myosin light chain kinase (MYLK3, Homo sapiens, UniProt Q32MK0) | cell-free assay | 86
Phosphatidylinositol 4-phosphate 5-kinase type-1 gamma (PIP5K1C, Homo sapiens, UniProt O60331) | cell-free assay | 87
Phosphatidylinositol 4,5-bisphosphate 3-kinase catalytic subunit alpha isoform (PIK3CA, Homo sapiens, UniProt P42336, C420R) | binding | 36
NT-3 growth factor receptor (NTRK3, Homo sapiens, UniProt Q16288) | cell-free assay | 91
Homeodomain-interacting protein kinase 4 (HIPK4, Homo sapiens, UniProt Q8NE63) | cell-free assay | 74

Repeated from above (sample 4):
target | effect on | remaining binding [%]
Mast/stem cell growth factor receptor Kit, autoinhibited (KIT, Homo sapiens, UniProt P10721) | cell-free assay | 100
Fibroblast growth factor receptor 3 (FGFR3, Homo sapiens, UniProt P22607) | cell-free assay | 90
Tyrosine-protein kinase FRK (FRK, Homo sapiens, UniProt P42685) | cell-free assay | 100
